Assay results pooled from the literature.
Numbered parts are unrelated; each lists some results of a single study.
Chain of UniProt P10721 (whole entry, unmodified, looked up): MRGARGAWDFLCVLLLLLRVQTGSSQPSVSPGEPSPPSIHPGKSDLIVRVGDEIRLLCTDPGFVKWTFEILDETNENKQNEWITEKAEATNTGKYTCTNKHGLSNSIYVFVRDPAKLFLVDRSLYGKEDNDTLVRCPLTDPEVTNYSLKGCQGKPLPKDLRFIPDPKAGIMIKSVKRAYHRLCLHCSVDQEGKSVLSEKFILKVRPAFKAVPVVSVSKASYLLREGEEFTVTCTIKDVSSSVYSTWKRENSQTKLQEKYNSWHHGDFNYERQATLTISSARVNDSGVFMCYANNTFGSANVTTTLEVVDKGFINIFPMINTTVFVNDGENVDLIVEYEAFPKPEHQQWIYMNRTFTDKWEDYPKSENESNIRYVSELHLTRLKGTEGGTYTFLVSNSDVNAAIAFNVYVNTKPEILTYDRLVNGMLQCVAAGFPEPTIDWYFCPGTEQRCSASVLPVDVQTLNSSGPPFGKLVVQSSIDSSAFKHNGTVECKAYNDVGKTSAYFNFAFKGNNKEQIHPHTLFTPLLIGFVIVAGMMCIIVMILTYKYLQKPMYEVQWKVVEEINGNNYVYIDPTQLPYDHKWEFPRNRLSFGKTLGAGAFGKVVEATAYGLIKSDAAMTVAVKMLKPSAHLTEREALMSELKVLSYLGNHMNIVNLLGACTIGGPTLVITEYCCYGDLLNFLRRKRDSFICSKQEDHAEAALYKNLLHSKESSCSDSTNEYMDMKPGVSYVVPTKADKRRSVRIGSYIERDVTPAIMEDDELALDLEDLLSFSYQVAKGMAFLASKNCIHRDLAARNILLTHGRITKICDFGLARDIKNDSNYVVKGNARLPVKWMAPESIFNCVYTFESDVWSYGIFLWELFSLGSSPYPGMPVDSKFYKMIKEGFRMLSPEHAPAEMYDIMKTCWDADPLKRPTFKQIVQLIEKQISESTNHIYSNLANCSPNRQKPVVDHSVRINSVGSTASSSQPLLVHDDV
Chain of UniProt Q13043 (whole entry, looked up): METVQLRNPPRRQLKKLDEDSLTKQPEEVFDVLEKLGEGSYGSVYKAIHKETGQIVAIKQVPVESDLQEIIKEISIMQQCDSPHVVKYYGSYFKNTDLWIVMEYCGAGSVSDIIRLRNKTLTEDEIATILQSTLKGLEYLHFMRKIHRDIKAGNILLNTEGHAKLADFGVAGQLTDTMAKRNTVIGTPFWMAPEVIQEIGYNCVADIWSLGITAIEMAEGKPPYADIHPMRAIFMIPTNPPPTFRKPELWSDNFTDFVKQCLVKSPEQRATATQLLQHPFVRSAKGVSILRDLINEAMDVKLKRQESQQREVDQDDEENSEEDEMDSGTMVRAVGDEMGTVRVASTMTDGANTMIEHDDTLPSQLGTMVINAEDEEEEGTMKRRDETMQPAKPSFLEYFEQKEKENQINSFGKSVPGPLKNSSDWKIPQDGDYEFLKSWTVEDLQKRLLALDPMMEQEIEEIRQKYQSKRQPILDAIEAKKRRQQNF
Chain of UniProt Q13188 (whole entry, looked up): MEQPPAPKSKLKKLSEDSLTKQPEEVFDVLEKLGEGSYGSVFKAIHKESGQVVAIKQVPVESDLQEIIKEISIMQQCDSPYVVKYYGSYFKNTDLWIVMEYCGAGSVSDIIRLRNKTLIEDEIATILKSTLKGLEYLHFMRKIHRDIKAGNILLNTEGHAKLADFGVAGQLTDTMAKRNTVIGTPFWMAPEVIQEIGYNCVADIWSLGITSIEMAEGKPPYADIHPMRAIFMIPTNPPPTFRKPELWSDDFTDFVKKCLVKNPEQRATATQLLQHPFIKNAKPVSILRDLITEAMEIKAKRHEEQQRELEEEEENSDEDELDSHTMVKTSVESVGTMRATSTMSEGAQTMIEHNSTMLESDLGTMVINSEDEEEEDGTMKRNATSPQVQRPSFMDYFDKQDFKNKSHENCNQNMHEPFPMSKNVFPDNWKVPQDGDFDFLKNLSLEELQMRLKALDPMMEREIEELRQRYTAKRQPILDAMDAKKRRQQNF
Chain of UniProt Q16512 (whole entry, looked up): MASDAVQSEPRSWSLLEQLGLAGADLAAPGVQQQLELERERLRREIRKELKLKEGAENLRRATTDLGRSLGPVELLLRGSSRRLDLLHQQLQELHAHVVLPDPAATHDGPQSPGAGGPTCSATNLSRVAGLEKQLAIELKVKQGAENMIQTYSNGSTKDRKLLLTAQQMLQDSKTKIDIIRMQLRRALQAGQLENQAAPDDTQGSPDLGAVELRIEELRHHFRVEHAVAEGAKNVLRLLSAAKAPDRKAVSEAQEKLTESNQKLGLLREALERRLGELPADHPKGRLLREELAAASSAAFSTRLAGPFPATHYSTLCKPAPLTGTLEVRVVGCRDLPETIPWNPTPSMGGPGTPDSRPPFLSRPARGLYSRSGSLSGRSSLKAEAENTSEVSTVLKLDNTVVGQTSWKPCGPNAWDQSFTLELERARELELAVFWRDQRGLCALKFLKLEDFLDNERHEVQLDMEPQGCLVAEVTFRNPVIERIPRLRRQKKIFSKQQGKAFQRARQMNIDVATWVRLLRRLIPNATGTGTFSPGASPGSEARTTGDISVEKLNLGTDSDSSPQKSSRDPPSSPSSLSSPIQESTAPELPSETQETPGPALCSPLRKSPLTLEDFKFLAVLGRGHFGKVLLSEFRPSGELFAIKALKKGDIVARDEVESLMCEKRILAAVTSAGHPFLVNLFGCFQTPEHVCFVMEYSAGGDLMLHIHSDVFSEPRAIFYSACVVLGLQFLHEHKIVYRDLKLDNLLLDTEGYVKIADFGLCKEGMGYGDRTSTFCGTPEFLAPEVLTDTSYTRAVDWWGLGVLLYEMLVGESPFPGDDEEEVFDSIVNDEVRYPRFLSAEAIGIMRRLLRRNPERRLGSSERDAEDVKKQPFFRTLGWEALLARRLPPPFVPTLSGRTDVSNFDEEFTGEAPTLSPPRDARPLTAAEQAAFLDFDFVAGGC
Chain of UniProt Q7L7X3 (whole entry, looked up): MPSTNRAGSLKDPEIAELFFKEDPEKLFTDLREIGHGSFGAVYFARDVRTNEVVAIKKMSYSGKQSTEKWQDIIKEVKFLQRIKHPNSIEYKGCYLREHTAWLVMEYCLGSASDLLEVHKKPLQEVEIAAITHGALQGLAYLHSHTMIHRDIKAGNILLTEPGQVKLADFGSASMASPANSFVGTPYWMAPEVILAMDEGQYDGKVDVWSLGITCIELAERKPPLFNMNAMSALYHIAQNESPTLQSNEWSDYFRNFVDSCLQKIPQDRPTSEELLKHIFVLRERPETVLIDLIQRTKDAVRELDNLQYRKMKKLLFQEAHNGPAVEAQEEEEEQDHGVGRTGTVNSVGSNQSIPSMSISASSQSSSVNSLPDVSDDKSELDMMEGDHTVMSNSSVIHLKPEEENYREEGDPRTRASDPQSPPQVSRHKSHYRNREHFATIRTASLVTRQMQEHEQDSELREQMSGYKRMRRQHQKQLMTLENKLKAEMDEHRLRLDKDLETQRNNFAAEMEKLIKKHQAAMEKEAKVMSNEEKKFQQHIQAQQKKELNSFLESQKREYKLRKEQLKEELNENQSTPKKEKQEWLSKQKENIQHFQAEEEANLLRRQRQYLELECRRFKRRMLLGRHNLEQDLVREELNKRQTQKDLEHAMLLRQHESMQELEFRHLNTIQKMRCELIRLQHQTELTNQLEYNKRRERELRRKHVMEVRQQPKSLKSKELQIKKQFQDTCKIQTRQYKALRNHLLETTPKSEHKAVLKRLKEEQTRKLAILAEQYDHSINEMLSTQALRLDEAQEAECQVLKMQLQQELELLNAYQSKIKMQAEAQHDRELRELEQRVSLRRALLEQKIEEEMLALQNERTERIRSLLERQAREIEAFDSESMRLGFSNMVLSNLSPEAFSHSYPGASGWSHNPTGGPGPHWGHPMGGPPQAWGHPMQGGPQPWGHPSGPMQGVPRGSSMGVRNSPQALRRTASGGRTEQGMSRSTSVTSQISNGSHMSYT
Chain of UniProt Q9H2X6 (whole entry, looked up): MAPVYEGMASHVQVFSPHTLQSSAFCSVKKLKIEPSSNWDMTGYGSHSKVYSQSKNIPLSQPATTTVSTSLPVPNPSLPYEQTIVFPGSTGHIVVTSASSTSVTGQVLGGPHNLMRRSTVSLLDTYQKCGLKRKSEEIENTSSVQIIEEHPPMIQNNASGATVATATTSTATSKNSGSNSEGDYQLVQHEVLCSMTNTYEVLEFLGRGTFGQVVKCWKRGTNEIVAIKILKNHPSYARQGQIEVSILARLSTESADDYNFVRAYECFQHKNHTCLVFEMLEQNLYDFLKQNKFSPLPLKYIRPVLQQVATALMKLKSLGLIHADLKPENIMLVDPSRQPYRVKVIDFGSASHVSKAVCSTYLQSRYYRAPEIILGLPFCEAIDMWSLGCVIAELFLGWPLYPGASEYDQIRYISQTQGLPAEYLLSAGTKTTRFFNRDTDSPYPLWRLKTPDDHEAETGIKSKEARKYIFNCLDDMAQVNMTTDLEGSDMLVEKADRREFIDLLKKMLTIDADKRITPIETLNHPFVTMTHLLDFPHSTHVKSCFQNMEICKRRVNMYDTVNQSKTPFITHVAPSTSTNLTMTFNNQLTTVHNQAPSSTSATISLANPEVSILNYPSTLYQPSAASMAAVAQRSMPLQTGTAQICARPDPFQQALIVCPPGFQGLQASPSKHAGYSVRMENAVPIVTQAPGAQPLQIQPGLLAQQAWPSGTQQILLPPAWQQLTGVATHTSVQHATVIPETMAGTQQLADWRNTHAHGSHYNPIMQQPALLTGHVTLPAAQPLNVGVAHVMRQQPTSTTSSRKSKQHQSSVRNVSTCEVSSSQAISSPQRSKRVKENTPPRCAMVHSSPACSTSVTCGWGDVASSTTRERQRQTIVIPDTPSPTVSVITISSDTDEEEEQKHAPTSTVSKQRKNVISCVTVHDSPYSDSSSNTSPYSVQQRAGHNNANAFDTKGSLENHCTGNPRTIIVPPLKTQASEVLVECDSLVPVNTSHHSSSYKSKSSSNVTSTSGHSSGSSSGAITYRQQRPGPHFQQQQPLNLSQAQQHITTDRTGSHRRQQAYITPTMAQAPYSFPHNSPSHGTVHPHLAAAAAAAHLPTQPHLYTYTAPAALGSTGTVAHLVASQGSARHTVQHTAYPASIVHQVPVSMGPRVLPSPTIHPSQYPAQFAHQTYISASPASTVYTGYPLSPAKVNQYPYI

Series 1
Cell line: mouse MPNST tumor cells
Technique: high-content nuclear imaging
Measured: cell number
Tested at: 10 µM
Time: 12 h
Setting: mean of 2 replicates
Reference: plate mean
Direction: higher = more cells
Endpoint: nuclei count
Cc1ccc2c(c1)c1c(n2CCc2ccc(C)nc2)CCN(C)C1: 3.19 z-score
CC(C)(O/N=C(\C(=O)N[C@@H]1C(=O)N2C(C(=O)[O-])=C(C[n+]3ccccc3)CS[C@H]12)c1csc(N)n1)C(=O)O: -0.319 z-score
CC(C)NCC(O)COc1ccc(CCOCC2CC2)cc1 (stereo not drawn): 1.64 z-score
Cc1cc(CN)cc(C)c1-c1ncn(C)c1-c1ccnc2cc(F)ccc12: 4.23 z-score
NCC[C@H](O)C(=O)N[C@@H]1C[C@H](N)[C@@H](O[C@H]2O[C@H](CN)[C@@H](O)[C@H](O)[C@H]2O)[C@H](O)[C@H]1O[C@H]1O[C@H](CO)[C@@H](O)[C@H](N)[C@H]1O: 0.197 z-score
CCC(CC=Cc1ccccc1)(c1ccccc1)N(C)CC1CC1 (single isomer, unassigned; (+)): 0.00149 z-score

Series 2
Technique: PRP chromatography estimate
Medium: 1,9-decadiene/PBS
pH: 7.4
Endpoint: logD
CC(C)C[C@@H]1NC(=O)[C@H](CC(C)C)NC(=O)[C@H](CC(C)C)NC(=O)[C@H](Cc2cscn2)NC(=O)[C@@H](Cc2cscn2)NC(=O)[C@@H](CC(C)C)NC(=O)[C@H](C)NC1=O: -0.989
CC(C)C[C@@H]1NC(=O)[C@H](C)NC(=O)[C@H](CCC(=O)N2CCCC2)NC(=O)[C@H](CCC(=O)N2CCCC2)NC(=O)[C@@H](CCC(=O)N2CCCC2)NC(=O)[C@H](CC(C)C)NC(=O)[C@@H](CC(C)C)NC1=O: -3.11
CC(C)C[C@@H]1NC(=O)[C@H](CC(C)C)NC(=O)[C@H](CC(C)C)NC(=O)[C@H](CC(C)C)NC(=O)[C@@H](Cc2cscn2)NC(=O)[C@H](Cc2cscn2)NC(=O)[C@H](CCC(=O)N2CCCC2)NC1=O: -1.26
CC(C)C[C@@H]1NC(=O)[C@H](C)NC(=O)[C@H](Cc2cscn2)NC(=O)[C@H](CCC(=O)N2CCCC2)NC(=O)[C@H](CC(C)C)NC(=O)[C@H](CC(C)C)NC(=O)[C@@H](C(C)C)NC1=O: -2.08
CC(C)C[C@@H]1NC(=O)[C@@H](C)NC(=O)[C@H](Cc2cscn2)NC(=O)[C@@H](CC(C)C)NC(=O)[C@H](C(C)C)NC(=O)[C@H](CC(C)C)NC(=O)[C@@H](CC(C)C)NC1=O: -0.295
CC(C)C[C@@H]1NC(=O)[C@H](Cc2cscn2)NC(=O)[C@H](Cc2cscn2)NC(=O)[C@@H](CC(C)C)NC(=O)[C@@H](CCC(=O)N2CCCC2)NC(=O)[C@H](CC(C)C)NC(=O)[C@@H](CC(C)C)NC1=O: -0.673
CC(C)C[C@@H]1NC(=O)[C@H](C)NC(=O)[C@H](CCC(=O)N2CCCC2)NC(=O)[C@H](CC(C)C)NC(=O)[C@@H](Cc2cscn2)NC(=O)[C@H](CC(C)C)NC(=O)[C@@H](CC(C)C)NC1=O: -1.7
CC(C)C[C@@H]1NC(=O)[C@H](CC(C)C)NC(=O)[C@H](CC(C)C)NC(=O)[C@H](C(C)C)NC(=O)[C@@H](Cc2cscn2)NC(=O)[C@H](Cc2cscn2)NC(=O)[C@H](CCC(=O)N2CCCC2)NC1=O: -1.62

Series 3
SMILES: CN(C)C(=O)Cn1cc(-c2nc([C@@](C)(c3ccc(-c4cnc(N)nc4)cc3)C3CC3)no2)cn1
Observed: cell-free assay
Technique: competition with immobilised ligand
Tested at: 1 µM
Endpoint: remaining binding
TAOK1 (Homo sapiens, UniProt Q7L7X3): 75%
PKN1 (Homo sapiens, UniProt Q16512): 99%
HIPK2 (Homo sapiens, UniProt Q9H2X6): 87%
STK4 (Homo sapiens, UniProt Q13043): 90%
FGFR2 (Homo sapiens, UniProt P21802): 85%
TNK1 (Homo sapiens, UniProt Q13470): 100%
Tyrosine-protein kinase ABL1, phosphorylated (ABL1, Homo sapiens, UniProt P00519, Q252H): 83%
KIT (Homo sapiens, UniProt P10721, L576P): 63%
LATS2 (Homo sapiens, UniProt Q9NRM7): 74%
KIT (Homo sapiens, UniProt P10721, T670I/V559D): 81%
YES1 (Homo sapiens, UniProt P07947): 94%
STK3 (Homo sapiens, UniProt Q13188): 100%
FGFR4 (Homo sapiens, UniProt P22455): 88%
NEK10 (Homo sapiens, UniProt Q6ZWH5): 97%
PIK3CD (Homo sapiens, UniProt O00329): 93%
PRKG1 (Homo sapiens, UniProt Q13976): 100%
NTRK2 (Homo sapiens, UniProt Q16620): 81%
EGFR (Homo sapiens, UniProt P00533, L861Q): 100%

Series 4
Target: panel of 300 human kinases
Tested at: 0.5 µM
Direction: higher = more selective
Endpoint: Gini score
O=C1c2ccccc2-[n+]2ccc3c([nH]c4ccccc43)c21: 0.59
Cc1cc(Nc2nc(-c3ccccc3)nc3ccccc23)n[nH]1: 0.57
O=C(NC(NC(=S)Nc1ccc(F)c([N+](=O)[O-])c1)C(Cl)(Cl)Cl)C(c1ccccc1)c1ccccc1 (stereo not drawn): 0.75
N#Cc1c(NC(=O)c2cccc3ccccc23)sc2c1CCCC2: 0.75
CCN(CC)CCNC(=O)c1c(C)[nH]c(/C=C2\C(=O)Nc3ccc(F)cc32)c1C: 0.52
CCN(CC)CCNC(=O)c1c(C)[nH]c(/C=C2\C(=O)Nc3ccc(Cl)cc32)c1C: 0.5
COc1cc2ncnc(Nc3ccc(O)c(Br)c3)c2cc1OC: 0.63
CC(C)(C)n1nc(Cc2cccc3ccccc23)c2c(N)ncnc21: 0.67
CC#CC(=O)Nc1cc2c(Nc3ccc(F)c(Cl)c3)ncnc2cn1: 0.79
CSc1nc(-c2ccnc(N[C@@H](C)c3ccccc3)c2)c(-c2ccc(F)cc2)[nH]1 (racemic): 0.63

Repeated from above (series 1):
NCC[C@H](O)C(=O)N[C@@H]1C[C@H](N)[C@@H](O[C@H]2O[C@H](CN)[C@@H](O)[C@H](O)[C@H]2O)[C@H](O)[C@H]1O[C@H]1O[C@H](CO)[C@@H](O)[C@H](N)[C@H]1O: 0.197 z-score
Cc1cc(CN)cc(C)c1-c1ncn(C)c1-c1ccnc2cc(F)ccc12: 4.23 z-score
CC(C)NCC(O)COc1ccc(CCOCC2CC2)cc1 (stereo not drawn): 1.64 z-score
Cc1ccc2c(c1)c1c(n2CCc2ccc(C)nc2)CCN(C)C1: 3.19 z-score
CCC(CC=Cc1ccccc1)(c1ccccc1)N(C)CC1CC1 (single isomer, unassigned; (+)): 0.00149 z-score
CC(C)(O/N=C(\C(=O)N[C@@H]1C(=O)N2C(C(=O)[O-])=C(C[n+]3ccccc3)CS[C@H]12)c1csc(N)n1)C(=O)O: -0.319 z-score
